Measured values collected from several papers.
Every numbered part comes from another study and shows a few of its results, in no order. Several values in a cell are separate wells, animals, samples, runs or records.

Set 1 — organism: SARS-CoV-2; read-out: cytopathic effect; cells: Vero E6; tested at: 10 µM
For O=C(O)C1=CC(=C(c2ccc(O)c(C(=O)O)c2)c2ccc(O)c(C(=O)O)c2)C=CC1=O, the inhibition was -9.2%.
For C=C1C(=O)[C@]23[C@H](O)[C@H]1CC[C@@H]2[C@@]12CO[C@]3(O)C[C@@H]1C(C)(C)CC[C@@H]2O, the inhibition was -30.2%.
CC1(C)C(/C=C/C=C/C=C/C=C2\N(CCCCS(=O)(=O)[O-])c3ccc4ccccc4c3C2(C)C)=[N+](CCCCS(=O)(=O)[O-])c2ccc3ccccc3c21.[Na+] gave an inhibition of -14.3%.
For CCN(CC)S(=O)(=O)c1cccc(-n2sc3ccccc3c2=O)c1, the inhibition was 5%.

Set 2 — technique: protein-binding microarray; form: double-stranded DNA, one strand shown; sample: in vitro; tested at: 2540 nM top; setting: 60-bp whole probe; added: salmon DNA 0.4 mg/ml; baseline: random background probes; direction: higher = stronger binding; constant ends, left off below: GCCTAGCAC … GTCTTGATTCGCTTGACGCTGCTG
Target: Interferon regulatory factor 3, full length, phosphomimetic (IRF3, Homo sapiens, UniProt Q14653, residues 1-427, S386D/S396D/S398D/S402D/T404D/S405D)
Sequence of UniProt Q14653 (whole entry, unmodified, looked up): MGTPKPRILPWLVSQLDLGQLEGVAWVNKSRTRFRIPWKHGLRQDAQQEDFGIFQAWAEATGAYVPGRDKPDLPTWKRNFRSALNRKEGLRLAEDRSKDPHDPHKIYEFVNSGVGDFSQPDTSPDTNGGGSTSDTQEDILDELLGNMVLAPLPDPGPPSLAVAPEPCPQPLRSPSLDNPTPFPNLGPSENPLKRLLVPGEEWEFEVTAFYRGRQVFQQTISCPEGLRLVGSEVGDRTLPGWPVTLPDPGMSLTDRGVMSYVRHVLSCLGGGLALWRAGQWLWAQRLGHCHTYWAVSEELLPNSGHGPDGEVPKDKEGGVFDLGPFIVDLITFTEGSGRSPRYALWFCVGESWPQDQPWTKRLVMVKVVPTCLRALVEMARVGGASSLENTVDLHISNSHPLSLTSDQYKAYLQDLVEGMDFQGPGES
For `TTAGTTCTCCTTCTCCTTTAGTGCTAG`, “fitted relative affinity” read 4.68 z-score.
`GACCATATCGGGACTGGAGACGTGCTA`: “fitted relative affinity” 0.869 z-score.
For `GACGATCTCAGTATCGTGACGTGCTAG`, “fitted relative affinity” read 0.834 z-score.
`TCATCTTTCCACTTTCTACTGTGCTAG` — result for “fitted relative affinity”: 2.88 z-score.
`TTAGGATTCGGACTGGGTTAGTGCTAG` — result for “fitted relative affinity”: 0.608 z-score.
`TTAGATCTCAGTCTCGTTTAGTGCTAG` — result for “fitted relative affinity”: 0.776 z-score.
`GACTATATCAGTATCGAGACGTGCTAG` — result for “fitted relative affinity”: 1.12 z-score.
`TCATGCTTCAGGTTTACCACTGTGCTA`: “fitted relative affinity” -0.324 z-score.

Set 3 — technique: protein binding microarray; form: double-stranded DNA, one strand shown; sample: in vitro; tested at: not given; baseline: not given; direction: higher = stronger binding
Target: Histone acetyltransferase KAT6A, both winged helices, GST fusion (KAT6A, Homo sapiens, UniProt Q92794, residues 1-181)
Setting: 8-mer, flanks averaged, mean of 2 arrays, mostly near background
Residues (chain): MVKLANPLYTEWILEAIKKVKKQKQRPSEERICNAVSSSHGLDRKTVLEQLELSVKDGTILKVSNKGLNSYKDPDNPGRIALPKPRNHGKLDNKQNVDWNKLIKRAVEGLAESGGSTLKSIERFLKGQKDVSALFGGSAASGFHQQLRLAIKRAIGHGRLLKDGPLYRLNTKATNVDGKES
The E-score of `ATTTTTAA` is reported as -0.0569.
`TCAAGGCA` has an E-score of -0.349.
The E-score of `GTCAAGTA` is reported as -0.129.
With `AGATCCGC` the E-score was 0.271.
The E-score of `AGTGGCAA` is reported as -0.144.
For `AAAACTTG`, the E-score was -0.125.
`CGTCCACC` has an E-score of -0.0419.
`ATACCCAC` gave an E-score of -0.146.

Set 4 — mode: inhibitor; tested at: 20 µM
Target: Replicase polyprotein 1ab, nsp13 helicase (rep, Severe acute respiratory syndrome coronavirus 2, UniProt P0DTD1)
COc1ccc(C(=O)CCC(=O)O)c2ccccc12 has an inhibition of 2.79%.
O=C(O)CSc1nnc(Br)n1-c1ccc(C2CC2)c2ccccc12 gave an inhibition of 11.5%.
With Oc1cccc(-c2c3nc(c(-c4cccc(O)c4)c4ccc([nH]4)c(-c4cccc(O)c4)c4nc(c(-c5cccc(O)c5)c5ccc2[nH]5)CC4)C=C3)c1 the inhibition was 29.9%.
The inhibition of Cc1cccc(-c2[nH]c(C(C)(C)C)nc2-c2ccc3nccnc3c2)n1 is reported as 10.2%.
COc1cc(-c2ccc(=O)[nH]n2)ccc1OC(F)F has an inhibition of 6.52%.
With CNS(=O)(=O)Nc1nccc(Cc2c(C)c3ccc(Oc4ncccn4)cc3oc2=O)c1F the inhibition was -1.93%.
With C[C@@H](O)[C@H]1C(=O)N2C(C(=O)O)=C(SCCNC=N)C[C@H]12 the inhibition was -0.48%.
For CN1CC[C@H](c2c(O)cc(O)c3c(=O)cc(-c4ccccc4Cl)oc23)[C@H](O)C1, the inhibition was -0.28%.
CN(C)CCCNC(=O)c1ccc(-c2cc(O)c3ncccc3c2)cc1 has an inhibition of 5.99%.
COC(=O)[C@H](CC(C)C)NC(=O)[C@@H](N)CC(C)C has an inhibition of 7.09%.
For C[C@]12CCC(=O)C=C1CC[C@@H]1[C@@H]2CC[C@@]2(C)[C@H]1CC[C@]2(C)O, the inhibition was 1.96%.
Cc1cnc(NC(=O)Nc2cc(Br)c(C)cc2OC[C@@H]2CNCCO2)cn1 has an inhibition of -0.27%.
With COc1cc(N2CCC(N3CCN(C)CC3)CC2)ccc1Nc1ncc(Cl)c(Nc2ccccc2P(C)(C)=O)n1 the inhibition was 13.6% and 5.3%.
For Cc1cc(O)c(C(=O)N[C@@H](C(=O)N[C@@H]2C(=O)N3C(C(=O)O)=C(CSc4nnnn4C)CS[C@H]23)c2ccc(O)cc2)cn1, the inhibition was 12.9%.
Cc1cnc(-c2cnc(NCCNc3ccc(C#N)cn3)nc2-c2ccc(Cl)cc2Cl)[nH]1 has an inhibition of -0.5%.
The inhibition of CCOc1ccc(-c2nc(-c3cccc4c3CCC4NCCO)no2)cc1OCC (stereo not shown) is reported as 20.2%.
For CCCCC/N=c1\ccn(Cc2ccccc2)c2ccccc12, the inhibition was 0.94%.
C=CC1=C(C(=O)O)N2C(=O)[C@@H](NC(=O)/C(=N\O)c3csc(N)n3)[C@H]2SC1 gave an inhibition of 8.97%.
With CC(C)c1cc2c(cc1S(=O)(=O)O)[C@@]1(C)CCC[C@@](C)(C(=O)O)[C@@H]1CC2 the inhibition was 3.26%.
With Cc1onc(-c2ccccc2)c1-c1ccc(S(N)(=O)=O)cc1 the inhibition was 3.6%.

Repeated from above (set 1):
For O=C(O)C1=CC(=C(c2ccc(O)c(C(=O)O)c2)c2ccc(O)c(C(=O)O)c2)C=CC1=O, the inhibition was -9.2%.
For C=C1C(=O)[C@]23[C@H](O)[C@H]1CC[C@@H]2[C@@]12CO[C@]3(O)C[C@@H]1C(C)(C)CC[C@@H]2O, the inhibition was -30.2%.
CC1(C)C(/C=C/C=C/C=C/C=C2\N(CCCCS(=O)(=O)[O-])c3ccc4ccccc4c3C2(C)C)=[N+](CCCCS(=O)(=O)[O-])c2ccc3ccccc3c21.[Na+] gave an inhibition of -14.3%.
For CCN(CC)S(=O)(=O)c1cccc(-n2sc3ccccc3c2=O)c1, the inhibition was 5%.
